Experimental data from different studies.
Each line is one published result; not all experiments were run side by side. Numbers after ± are the reported error.
Slc6a2: Transporter (Slc6a2, Rattus norvegicus, UniProt Q63380)

The chains behind the UniProt entries cited, without tags or fusion partners. Residues count along the entry.
UniProt Q63380, 1-617: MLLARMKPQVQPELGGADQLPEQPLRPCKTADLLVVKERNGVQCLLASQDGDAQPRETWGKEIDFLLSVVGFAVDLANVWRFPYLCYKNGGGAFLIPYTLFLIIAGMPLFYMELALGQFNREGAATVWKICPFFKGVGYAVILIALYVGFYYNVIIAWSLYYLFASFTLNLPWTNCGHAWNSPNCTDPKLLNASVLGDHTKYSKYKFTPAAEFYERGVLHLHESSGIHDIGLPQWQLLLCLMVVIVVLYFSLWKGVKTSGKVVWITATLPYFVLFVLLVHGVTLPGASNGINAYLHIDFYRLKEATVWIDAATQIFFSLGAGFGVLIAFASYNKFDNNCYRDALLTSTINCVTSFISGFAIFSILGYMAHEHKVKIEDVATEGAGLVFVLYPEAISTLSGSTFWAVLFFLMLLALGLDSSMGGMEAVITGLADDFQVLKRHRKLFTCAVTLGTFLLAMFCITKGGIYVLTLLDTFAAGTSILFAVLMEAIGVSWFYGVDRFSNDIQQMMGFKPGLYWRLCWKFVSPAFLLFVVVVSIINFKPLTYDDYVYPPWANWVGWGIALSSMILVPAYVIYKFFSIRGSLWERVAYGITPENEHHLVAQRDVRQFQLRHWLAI
UniProt Q12809, whole entry: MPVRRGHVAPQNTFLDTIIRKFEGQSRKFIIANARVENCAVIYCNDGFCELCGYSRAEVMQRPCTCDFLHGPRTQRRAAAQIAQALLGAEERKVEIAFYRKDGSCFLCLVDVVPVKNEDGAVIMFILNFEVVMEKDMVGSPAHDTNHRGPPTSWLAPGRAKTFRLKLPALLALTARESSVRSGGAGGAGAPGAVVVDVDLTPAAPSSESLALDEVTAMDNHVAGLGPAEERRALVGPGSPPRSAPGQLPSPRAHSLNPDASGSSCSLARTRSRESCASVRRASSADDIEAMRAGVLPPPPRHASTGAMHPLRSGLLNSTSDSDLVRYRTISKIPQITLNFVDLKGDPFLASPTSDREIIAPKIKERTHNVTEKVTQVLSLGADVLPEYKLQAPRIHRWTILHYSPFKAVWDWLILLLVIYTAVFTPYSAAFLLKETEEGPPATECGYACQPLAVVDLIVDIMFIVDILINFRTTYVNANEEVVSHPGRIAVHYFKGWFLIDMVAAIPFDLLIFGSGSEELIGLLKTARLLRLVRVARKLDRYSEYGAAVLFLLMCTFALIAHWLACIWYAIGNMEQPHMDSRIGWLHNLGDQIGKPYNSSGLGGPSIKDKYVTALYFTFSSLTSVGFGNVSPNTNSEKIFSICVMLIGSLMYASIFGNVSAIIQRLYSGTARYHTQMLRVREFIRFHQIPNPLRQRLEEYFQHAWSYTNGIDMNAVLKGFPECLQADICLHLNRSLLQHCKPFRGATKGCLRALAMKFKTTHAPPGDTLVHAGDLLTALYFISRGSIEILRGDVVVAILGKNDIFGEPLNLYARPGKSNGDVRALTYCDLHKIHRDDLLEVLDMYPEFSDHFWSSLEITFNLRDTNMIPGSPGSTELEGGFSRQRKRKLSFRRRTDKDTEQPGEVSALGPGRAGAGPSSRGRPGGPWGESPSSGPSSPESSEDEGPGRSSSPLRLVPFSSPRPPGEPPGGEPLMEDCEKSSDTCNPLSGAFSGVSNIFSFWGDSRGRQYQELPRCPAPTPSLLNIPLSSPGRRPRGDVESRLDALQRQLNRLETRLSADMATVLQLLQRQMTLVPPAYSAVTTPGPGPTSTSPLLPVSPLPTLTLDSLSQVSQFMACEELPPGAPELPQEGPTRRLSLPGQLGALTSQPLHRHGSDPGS

`C[C@H]1CCCN1Cc1cc2cnc(NC(=O)c3ccc4c(cnn4C)c3)cc2[nH]1`: colony formation “no effect” (human CD34+ cord blood cells; 1 and 10 µM, normal progenitor cells).
Under “heart to blood ratio”, `N=C(N)NCCc1ccc(OCCCF)c(I)c1` is recorded as 5.9 ± 0.4 (Slc6a2; healthy Wistar rat, heart; iv, 10 min, biodistribution).
For `COc1ccc(N2C(=O)N(c3c(C)cccc3Cl)Cc3cnc(Nc4ccc(N5CCN(C)CC5)cc4OC)nc32)nc1`, the CC50 was 6 ± 1 µM (bone marrow-derived dendritic cells, mouse; added: zymosan A).
The viability of `NC(=O)c1ccc(-n2cccc2Cc2ccccc2O)cc1N[C@H]1CC[C@H](O)CC1` is reported as greater than 95% (PC-3 MM-2; 25 µM, 72 h).
`N=C(N)NCCc1ccc(OCCCF)c(F)c1` [isotope labelled]: “heart to blood ratio” 13.2 ± 1.2 (Slc6a2; healthy Wistar rat, heart; iv, 10 min, biodistribution).
For `O=C(Nc1cccnn1)N1CC(Oc2ccc(-c3ccccc3F)cn2)C1`, the urinary excretion was less than 0.3% (healthy humans; oral, single dose; reference: dose).
For `c1nn(C2CCOCC2)cc1Nc1ncc2nnn(-c3ccc4cn[nH]c4c3)c2n1`, the cytotoxicity was 32 ± 7% (U-251 expressing Fluc; luminescence decrease, luciferase reporter; concentration not given, 6 h; reference: untreated).
Under plasma level, `CCc1c(-c2ccccc2)nn2c(=O)cc(-c3cccc(C(=O)O)c3)[nH]c12` is recorded as “not detected” (mouse; 10 mg/kg, 24 h).
`CC(C)NC(=O)Nc1ccc2c(c1)C(=O)N([C@H](C)CO)C[C@@H](C)[C@H](CN(C)S(=O)(=O)c1ccc(Cl)cc1)O2`: cytotoxicity “not toxic” (ldlA[mSR-BI] cells; CellTiter-Glo; concentration not given, 24 h).
For `CCOc1ccc2cc(-c3nn(CC4CCN(C)CC4)c4ncnc(N)c34)ccc2n1`, the IC50 was 1.51 µM (Voltage-gated inwardly rectifying potassium channel KCNH2 (KCNH2, Homo sapiens, UniProt Q12809); inhibitor).

A few entries again:
`N=C(N)NCCc1ccc(OCCCF)c(F)c1` [isotope labelled]: “heart to blood ratio” 13.2 ± 1.2 (Slc6a2; healthy Wistar rat, heart; iv, 10 min, biodistribution).
